Results of several laboratories.
Protocols differ between the studies behind these lines. In brackets after ≈: the same amount, converted by molar mass.
Organism: Staphylococcus aureus

Substance	test	system	setting	how to read	quantity	value
Oc1ccc(-c2nc(-c3ccc(Oc4ccc(C(F)(F)F)cc4)cc3)no2)cc1	survival	ATCC 27660 MRSA, mouse, peritonitis	intravenous, two doses post-infection		ED50	40 mg/kg
Cc1ccccc1NC(=O)C1C(=O)C(c2ccccc2)c2ccc3c(c21)C(=O)c1ccccc1C3=O (stereo not shown)	microbial growth, disc diffusion	MTCC96	100 µg/mL, 24 h		inhibition zone	10 mm
O=C(O)CSc1nnc(C23CC4CC(CC(C4)C2)C3)n1-c1ccccc1		IFO 3060	200 µg/disc, 24 h, 37 °C		inhibition zone diameter	23 mm
gentamicin		ATCC 29213	10 µg/mL, 24 h, 37 °C		inhibition zone diameter	22 mm
CN[C@H](CC(C)C)C(=O)N[C@H]1C(=O)N[C@@H](CC(N)=O)C(=O)N[C@H]2C(=O)N[C@H]3C(=O)N[C@H](C(=O)N[C@H](C(=O)O)c4cc(O)cc(O)c4-c4cc3ccc4O)[C@H](O)c3ccc(c(Cl)c3)Oc3cc2cc(c3O[C@@H]2O[C@H](CO)[C@@H](O)[C@H](O)[C@H]2O[C@H]2C[C@](C)(N)[C@H](O)[C@H](C)O2)Oc2ccc(cc2Cl)[C@H]1O		MRSA 5 tetM, mouse thigh infection model	sc, 20 mg/kg, 24 h	reference: untreated control	log10 CFU change	1.71 log10
C/C(=C\C(=O)OCCCCCCCCC(=O)O)C[C@@H]1OC[C@H](C[C@@H]2O[C@H]2[C@@H](C)[C@H](C)O)[C@@H](O)[C@H]1O		MRSA, BALB/c mice, burn wound infection, skin	topical, 2% ointment twice daily for 7 days, 168 h		bacterial load	2.5e+06 CFU/g
Cc1nn2c(=O)cc(Cc3ccccc3)[nH]c2c1-c1ccc(Cl)cc1	ICP-MS		0.6 µM, with: Cu 50 µM	reference: equimolar Cu only	cell-associated Cu content	~13 fold
CC1(C)S[C@@H]2[C@H](NC(=O)[C@H](N)c3ccc(O)cc3)C(=O)N2[C@H]1C(=O)O		hospitalized pneumonia patients, clinical isolates	Fine score 70 or more		susceptible isolates	7.7%
CC12C[C@@]34C=CC(=O)[C@@](C)(CCC(=O)Nc5c(O)ccc(C(=O)O)c5O)C3[C@H](CC1C4)O2 (stereo partly shown)		MRSA, BALB/c mice, burn wound infection, skin	topical, 2% ointment twice daily for 7 days, 168 h		bacterial load	2e+06 CFU/g
CC[C@H](C)[C@H](NC(=O)CNC(=O)[C@H](CCC(=O)O)NC(=O)[C@H](CO)NC(=O)[C@@H](NC(=O)[C@H](CCCNC(=N)N)NC(=O)[C@H](CCCCN)NC(=O)[C@H](CCCCN)NC(=O)[C@H](C)NC(=O)[C@H](CO)NC(=O)[C@H](CC(N)=O)NC(=O)[C@H](CCC(=O)O)NC(=O)[C@H](CC(C)C)NC(=O)[C@H](CCCCN)NC(=O)[C@H](CCCCN)NC(=O)[C@H](C)NC(=O)[C@@H](NC(=O)[C@H](CCCCN)NC(=O)[C@H](CO)NC(=O)[C@H](CC(C)C)NC(=O)[C@H](Cc1c[nH]c2ccccc12)NC(=O)[C@@H](N)CO)[C@@H](C)O)[C@@H](C)CC)C(=O)N[C@@H](C)C(=O)N[C@H](C(=O)N[C@@H](C)C(=O)N[C@H](C(=O)N[C@@H](CCC(N)=O)C(=O)NCC(=O)NCC(=O)N1CCC[C@H]1C(=O)N[C@@H](CCCNC(=N)N)C(=O)O)[C@@H](C)CC)[C@@H](C)CC	broth microdilution	methicillin-susceptible clinical isolates, Mueller-Hinton broth	18 h, 35 °C		MIC range	8 to 64 mg/L (≈ 2.4 to 19.2 µM)
CC1(C)S[C@@H]2[C@H](NC(=O)[C@H](N)c3ccccc3)C(=O)N2[C@H]1C(=O)O	respiratory activity, inhibitor, MTT	ATCC 29213	concentration not given	at least 70% inhibition	lowest effective concentration	16 × MIC
Oc1c(Br)cc(Br)c2nc3ccccc3nc12	Calgary Biofilm Device	MRSA 2, clinical isolate			MBC	37.5 µM (≈ 13.3 µg/mL)
CO/N=C(\C(=O)N[C@@H]1C(=O)N2C(C(=O)O)=C(CSc3nc(=O)c(=O)[nH]n3C)CS[C@H]12)c1csc(N)n1	checkerboard	ATCC 25923	with: magainin II		FIC index	0.312
RWQWRWQWR	broth microdilution	peptide, ATCC 25923			MBC	> 135 µM
CCc1cc(=O)c2c(OCC(O)CN3CCCCC3)c3ccoc3c(OC)c2o1 (stereo not shown)	microbial growth, broth dilution	ATCC6538	19 h		MIC	> 256 mg/L
O=C1c2ccccc2NC(c2cc([N+](=O)[O-])ccc2O)N1/N=C/c1cc([N+](=O)[O-])ccc1O (stereo not shown)	respiratory activity, inhibitor, MTT	ATCC 29213	concentration not given	at least 70% inhibition	lowest effective concentration	0.12 × MIC
CCc1cc(=O)c2c(OCC(O)CNC(C)(C)C)c3ccoc3c(OC)c2o1 (stereo not shown)	microbial growth, broth dilution	ATCC29	19 h		MIC	> 256 mg/L
COc1cc(C=Cc2cc(-c3ccccc3)nc(O)n2)ccc1O	microbial growth, disc diffusion	ATCC29213	250 µg/mL		inhibition zone	17 mm
CCC(=O)O[C@H]1[C@H](C)O[C@@H](O[C@H]2[C@H](N(C)C)[C@@H](O)[C@H](O[C@H]3[C@@H](CC=O)C[C@@H](C)[C@@H](O)/C=C/C=C/C[C@@H](C)OC(=O)C[C@@H](O)[C@@H]3OC)O[C@@H]2C)C[C@@]1(C)O	growth	SG 511, DMSO–methanol	50 µL of 2.0 mM, 24 h, 37 °C		inhibition zone diameter	30 mm
CC1(C)S[C@@H]2[C@H](NC(=O)[C@H](N)c3ccccc3)C(=O)N2[C@H]1C(=O)O		IFO 3060	100 µg/disc, 24 h		inhibition zone diameter	23 mm
CCN1CCN(C(=O)N[C@@H](C(=O)N[C@@H]2C(=O)N3[C@@H]2SC(C)(C)[C@@H]3C(=O)O)c2ccccc2)C(=O)C1=O	checkerboard broth microdilution	ATCC 27853	with: ranalexin		FIC index	0.75
CCc1cc(=O)c2c(OCC(O)CN3CCC(C)CC3)c3ccoc3c(OC)c2o1 (stereo not shown)	microbial growth, broth dilution	ATCC25	19 h		MIC	> 256 mg/L
CCOC(=O)N1CCN(Cn2nc(C34CC5CC(CC(C5)C3)C4)n(-c3ccccc3)c2=S)CC1		IFO 3060	200 µg/disc, 24 h, 37 °C		inhibition zone diameter	17 mm
C[C@@H](O)[C@H]1C(=O)N2C(C(=O)O)=C(S[C@@H]3CN[C@H](C(=O)N(C)C)C3)[C@H](C)[C@H]12	checkerboard broth microdilution	ATCC 25923	with: ranalexin		FIC index	1
CNC(C)C1CCC(N)C(OC2C(N)CC(N)C(OC3OCC(C)(O)C(NC)C3O)C2O)O1 (stereo not shown)		IFO 3060	100 µg/disc, 24 h		inhibition zone diameter	26 mm
O=C(/C=C/C=C/c1ccccc1)c1ccccc1O	microbial growth, well diffusion	MTCC96	1000 µg/mL, 18 h		inhibition zone	7 mm
CC[C@H]1OC(=O)[C@H](C)[C@@H](O[C@H]2C[C@@](C)(OC)[C@@H](O)[C@H](C)O2)[C@H](C)[C@@H](O[C@@H]2O[C@H](C)C[C@H](N(C)C)[C@H]2O)[C@](C)(OC)C[C@@H](C)C(=O)[C@H](C)[C@@H](O)[C@]1(C)O	checkerboard broth microdilution	ATCC 27853	with: ranalexin		FIC index	0.25
CN(C)c1ccc(O)c2c1C[C@H]1C[C@H]3[C@H](N(C)C)C(O)=C(C(N)=O)C(=O)[C@@]3(O)C(O)=C1C2=O		MRSA 5 tetM, mouse thigh infection model	sc, 20 mg/kg, 24 h	reference: untreated control	log10 CFU change	0.98 log10
